# Assay results gathered from unrelated publications.
# Protocols differ between the studies behind these lines. Numbers after ± are the reported error.
SMILES,cell line,assay,conditions,IC50 [µM]
O=C(Nc1c(Cl)cncc1Cl)c1ccc(OC(F)F)c(OCC2CC2)c1,human PBMC,"cytokine release, refers to: IFN-γ","24 h, added: anti-CD28, and anti-CD3ε",0.0025
COc1cccc(C(=O)c2cc3c(-c4ccccc4)c(OC)ccc3o2)c1,FM3A,cell proliferation,48 h,13
"CC(=O)c1c(O)c(C)c(O)c2c1OC1=CC(=O)C(C(C)=O)C(=O)C12C (single isomer, unassigned; (+))","hepatocytes, iPSC-derived, line L3",cell viability,24 h,44
C[C@@H]1CC[C@@H]([C@@](C)(O)Cn2cnc3ccccc32)[C@H](OCc2ccccc2)C1,A2780,"cell growth, inhibitor, MTT",72 h,10.9
COc1cccc(Cn2nc(-c3ccc(CO)o3)c3ccccc32)c1,SNU-1079,"cell viability, CellTiter-Glo",,0.47
Cc1cc(Nc2ncc(Cl)c(Nc3ccccc3S(=O)(=O)C(C)C)n2)c(OC(C)C)cc1C1CCNCC1,"Ba/F3 EML4-ALK v1, no mutation",cell viability,,0.0774
CN1CC(Oc2cnc(C#N)cc2-c2ccn3nc(NC(=O)C4CC4)cc3c2)C1,human monocyte-derived macrophages,"cytokine release, refers to: TNF",added: LPS,3.82
COc1ccc(C(=O)c2cc3c(-c4ccccc4)c(O)ccc3o2)cc1,FM3A,cell proliferation,48 h,1.9
COC(=O)c1ccc(C(=O)COc2ccc(N3C(=O)[C@@H]4[C@@H]5C=C[C@@H]([C@H]6C[C@@H]56)[C@@H]4C3=O)cc2)cc1,Mut6 cells,"cell viability, CellTiter-Glo",96 h,1.93
CC#CC(=O)N1CCC[C@H]1c1nc(-c2ccc(C(=O)Nc3ccccn3)cc2)c2c(N)nccn12,TMD8,"calcium flux, FLIPR","1 h preincubation, added: anti-IgM",0.422
CCOc1cc([C@@H](CS(C)(=O)=O)N2C(=O)c3cccc(NC(C)=O)c3C2=O)ccc1OC,human PBMC,"cytokine release, refers to: IFN-γ","24 h, added: anti-CD28, and anti-CD3ε",0.15
COc1ccc(C(=O)NCc2ccc(N3C(=O)[C@@H]4[C@@H]5C=C[C@@H]([C@H]6C[C@@H]56)[C@@H]4C3=O)cc2)cc1,Mut6 cells,"cell viability, CellTiter-Glo",96 h,1.96
C[C@@H]1CC[C@@H]([C@](O)(CNCc2ccccc2)COCc2ccc(F)cc2)[C@H](OCc2ccc(F)cc2)C1,A2780,"cell growth, inhibitor, MTT",72 h,2.23
O=C(c1cc(Cc2n[nH]c(=O)c3ccccc23)ccc1F)N1CCN(C(=O)C2CC2)CC1,MX1,,,0.611
COc1ccc(C(=O)CCc2ccc(N3C(=O)[C@@H]4[C@@H]5C=C[C@@H]([C@H]6C[C@@H]56)[C@@H]4C3=O)cc2)cc1,Mut6 cells,"cell viability, CellTiter-Glo",96 h,0.0184
COc1ccc2[nH]c3c(C)c4ccnc(C(=O)N[C@H](C)CN(C)C)c4cc3c2c1,HEK293T (G4C2)66-No-ATG-GFP reporter,"RAN translation of r(G4C2)exp, fluorescence reporter",,0.8
OCc1ccc(-c2nn(Cc3ccncc3)c3cccnc23)o1,SNU-1079,"cell viability, CellTiter-Glo",,13.1
CCOC(=O)c1c(-c2ccc(OC)cc2)oc2ccc(OCc3cn(C[C@H]4O[C@H](O[C@H]5O[C@H](CO)[C@@H](O)[C@H](O)[C@H]5O)[C@H](O)[C@@H](O)[C@@H]4O)nn3)c(CN3CCCCC3)c12,J774.A1,"cytotoxicity, resazurin",18 h,> 200
CC1(C)COc2ccc(F)cc2CN2c3nc4c(cnn4cc3OC[C@H]2C(F)F)C(=O)N1,"Ba/F3 EML4-ALK v1, no mutation",cell viability,,0.0192
Nc1ncc(-c2cnn(C3CCNCC3)c2)cc1-c1nnc(CC2CC2)o1,MOLM-13,cell viability,72 h,0.185
C=CC(=O)N1CCC([C@@H]2CCNc3c(C(N)=O)c(-c4ccc(Oc5ccccc5)cc4)nn32)CC1,TMD8,"calcium flux, FLIPR","2 h preincubation, added: anti-IgM",0.00238
COc1ccccc1Cn1nc(-c2ccc(CO)o2)c2ccccc21,SNU-1079,"cell viability, CellTiter-Glo",,0.41
C[C@@H]1CC[C@@H]([C@@](O)(CNCc2cccc3ccccc23)COCc2ccccc2)[C@H](OCc2ccccc2)C1,A2780,"cell growth, inhibitor, MTT",72 h,4.06
C=CC(=O)Nc1cc(Nc2nccc(Nc3cc(Cl)c(F)cc3C(C)(C)O)n2)c(OC)cc1N1CC[C@@H](N(C)C)C1,NCI-H2073 KI SVD,"cell proliferation, CellTiter-Glo",72 h,0.021
CC(C)c1ccccc1[C@@H]1CCCN1C1CC2(CCN(c3ccc(C(=O)NS(=O)(=O)c4ccc(NC[C@H]5CC[C@](C)(O)CC5)c([N+](=O)[O-])c4)c(Oc4cnc5[nH]ccc5c4)c3)CC2)C1,KMS-12-PE,"cell viability, CellTiter-Glo",,0.0016 ± 0.00051
N#CC[C@H](C1CCCC1)n1cc(-c2ncnc3[nH]ccc23)cn1,human PBMC,"cytokine release, refers to: IL-10","24 h, added: anti-CD28, and anti-CD3ε",0.0054
COc1cc(OC)cc(C(=O)c2cc3c(-c4ccccc4)c(O)ccc3o2)c1,FM3A,cell proliferation,48 h,30 ± 2
COC(=O)Oc1ccc(C(=O)COc2ccc(N3C(=O)[C@@H]4[C@@H]5C=C[C@@H]([C@H]6C[C@@H]56)[C@@H]4C3=O)cc2)cc1,Mut6 cells,"cell viability, CellTiter-Glo",96 h,0.0366
C[C@H](Nc1ccc2c(c1)OCCn1cc(N3C(=O)OC[C@H]3C(F)F)nc1-2)C(N)=O,BT-20,"growth rate inhibition, CellTiter-Glo",120 h,0.697
C[C@@H]1CC[C@@H]([C@](C)(O)CNCc2cccc(F)c2)[C@H](OCc2ccccc2)C1,A2780,"cell growth, inhibitor, MTT",72 h,9.31
COc1cc2nc(N3CCN(C(=O)C4COc5ccccc5O4)CC3)nc(N)c2cc1OC (stereo not shown),TW01,MTT,48 h,24 ± 4.4
N#Cc1ccc(Oc2ccc3c(c2)COB3O)cc1,human PBMC,"cytokine release, refers to: IFN-γ","24 h, added: anti-CD28, and anti-CD3ε",0.61
COc1ncccc1Cn1nc(-c2ccc(CO)o2)c2ccccc21,SNU-1079,"cell viability, CellTiter-Glo",,0.21
Cc1cc(/C=C/C#N)cc(C)c1Nc1ccnc(Nc2ccc(C#N)cc2)n1,TW01,MTT,48 h,4.89 ± 2.1
Cc1nc(NC(=O)N2CCC[C@H]2C(N)=O)sc1-c1ccnc(C(C)(C)C(F)(F)F)c1,KYSE-510,"growth rate inhibition, CellTiter-Glo",120 h,7.81
Cc1c(C)c2c(c(C)c1O)CCC(C)(COc1ccc(CC3SC(=O)NC3=O)cc1)O2 (stereo not shown),"hepatocytes, iPSC-derived, line L3","cell viability, RealTime-Glo MT","72 h, differentiation day 23",80
COc1cnccc1Cn1nc(-c2ccc(CO)o2)c2ccccc21,SNU-1079,"cell viability, CellTiter-Glo",,0.17
CCCCN1C[C@H](O)[C@@H](O)[C@@H](O)[C@H]1CO,sample G patient fibroblasts,"Gb3 level lowering, LC-MS/MS, refers to: Gb3 d18:1/22:0",216 h,10.9
COc1ccccc1C(=O)c1cc2c(-c3ccccc3)c(OC)ccc2o1,FM3A,cell proliferation,48 h,> 50
C=CC(=O)N1CCC[C@@H](c2ccc(C(N)=O)c3[nH]ccc23)C1,TMD8,"calcium flux, FLIPR","1 h preincubation, added: anti-IgM",> 1
C[C@H]1Oc2cc(cnc2N)-c2c(nn(C)c2C#N)CN(C)C(=O)c2ccc(F)cc21,"Ba/F3 EML4-ALK v1, no mutation",cell viability,,< 0.00364
OCc1ccc(-c2nn(Cc3ccccc3)c3ccccc23)o1,SNU-1079,"cell viability, CellTiter-Glo",,0.83
COc1nc(OCc2cccc(-c3ccccc3)c2C)ccc1CNCCNC(C)=O,human PBMC,"cell viability, MTT",,3.4
C=CC(=O)N1CCC(Oc2cc3c(Nc4ccc(Cl)c(Cl)c4F)ncnc3cc2OC)CC1,NCI-H2073 KI SVD,"cell proliferation, CellTiter-Glo",72 h,0.000475
CCn1ncc2c1-c1cnc(N)c(c1)O[C@H](C)c1cc(F)ccc1-c1nn(C)nc1C2,"NCI-H3122, EML4-ALK v1",cell viability,,0.011
Cc1c(C)c2c(c(C)c1O)CCC(C)(COc1ccc(CC3SC(=O)NC3=O)cc1)O2 (stereo not shown),mouse primary hepatocytes,"cytotoxicity, MTT","96 h, 3D culture",145.5 ± 0.318
O=C(O)COCC(=O)O,"hepatocytes, iPSC-derived, line L3","cell viability, RealTime-Glo MT","24 h, differentiation day 23",11800
C=CC(=O)Nc1cc(Nc2nccc(-c3cn(C)c4ccccc34)n2)c(OC)cc1N(C)CCN(C)C,Ba/F3 EGFR H773_V774insNPH,"cell growth, CellTiter-Glo",72 h,0.0503 ± 0.00188
C[C@H]1CN(C2COC2)CCN1c1ccc(Nc2cc(-c3ccnc(N4CCn5c(cc6c5CC(C)(C)C6)C4=O)c3CO)cn(C)c2=O)nc1,TMD8,"calcium flux, FLIPR","4 h preincubation, added: anti-IgM",0.0262
